Results pooled from the literature.
Compare with care: the assays were run in different laboratories. Values joined by “and” are separate records of one study, mostly repeats; a detail may differ. Numbers after ± are the reported error.

`CN1Cc2cc(Cl)ccc2-n2c(nnc2C2CCN(c3cccc([18F])n3)CC2)C1` gave a tissue uptake of 6.86 ± 1.37 %ID/g (C57BL/6 mouse male, pancreas; intravenous, 3.7 MBq, 15 min).
`CC[C@H](C)[C@H](NC(=O)[C@H](CCCCN)NC(=O)CNC(=O)[C@H](CC(C)C)NC(=O)[C@H](Cc1ccccc1)NC(=O)[C@H](CCCCN)NC(=O)[C@H](CO)NC(=O)[C@H](Cc1ccccc1)NC(=O)[C@H](Cc1c[nH]c2ccccc12)NC(=O)[C@H](CCC(N)=O)NC(=O)[C@@H](NC(=O)[C@H](Cc1ccccc1)NC(=O)CCCCCNC(=O)CN1CCN(CC(=O)O)CCN(CC(=O)O)CCN(CC(=O)O)CC1)C(C)C)C(=O)N[C@@H](CCC(=O)O)C(=O)N1CCC[C@H]1C(=O)N[C@@H](CC(=O)O)C(=O)N[C@H](C(=O)N[C@@H](CO)C(=O)N[C@@H](CCC(N)=O)C(=O)N[C@H](C(=O)N[C@@H](CCC(N)=O)C(=O)N[C@@H](CC(=O)O)C(=O)N1CCC[C@H]1C(=O)N[C@@H](CC(N)=O)C(=O)N[C@@H](CC(=O)O)C(=O)N[C@@H](CCC(N)=O)C(=O)N[C@@H](Cc1ccc(O)cc1)C(=O)N[C@@H](CCC(=O)O)C(=O)N1CCC[C@H]1C(=O)N[C@@H](Cc1ccccc1)C(=O)O)C(C)C)C(C)C` [copper-64 labelled] has an SUVmean of 4.42 SUV (dynamic PET; mouse, CT26 tumour, checkpoint inhibitor-treated, tumour; intravenous, 100 µCi/mouse, 1110 s).
For `CC(C)[C@@H]1NC(=O)CNC(=O)[C@H](CC(N)=O)NC(=O)[C@H](CCCNC(=N)N)NC(=O)[C@H](Cc2ccc(O)cc2)NC(=O)[C@H](C(C)C)NC(=O)[C@@H](NC(=O)[C@@H](NC(=O)[C@H](CC(N)=O)NC(=O)[C@H](Cc2c[nH]c3ccccc23)NC(=O)[C@H](C)NC(=O)[C@H](Cc2ccccc2)NC(=O)CNC(=O)[C@H](CCCCN)NC(=O)[C@H](Cc2ccccc2)NC(=O)[C@H](Cc2ccccc2)NC(=O)[C@H](CCCCN)NC(=O)OCC2c3ccccc3-c3ccccc32)C(C)C)CSSC[C@@H](C(=O)N[C@@H](Cc2c[nH]cn2)C(=O)N[C@@H](CCCNC(=N)N)C(=O)N[C@@H](CCCNC(=N)N)C(=O)N[C@@H](C)C(=O)N[C@@H](CC(N)=O)C(N)=O)NC(=O)[C@H](C(C)C)NC(=O)[C@H](CCCNC(=N)N)NC1=O`, the peptide remaining was 44.7% and 41.8% and 47.8% (HPLC; mouse liver homogenate 50 mg/mL; 2.00 h).
The tumour uptake of `CCCC[C@H]1C(=O)N(C)[C@@H](CCCC)C(=O)N[C@@H](CCCCNC(=S)Nc2ccc(CN3CCN(CC(=O)O)CCN(CC(=O)O)CC3)cc2)C(=O)N[C@H](C(=O)NCC(N)=O)CSCC(=O)N[C@@H](Cc2ccc(O)cc2)C(=O)N(C)[C@@H](C)C(=O)N[C@@H](CC(N)=O)C(=O)N2CCC[C@H]2C(=O)N[C@@H](Cc2cnc[nH]2)C(=O)N[C@@H](CCC(=O)O)C(=O)N2C[C@H](O)C[C@H]2C(=O)N[C@@H](Cc2c[nH]c3ccccc23)C(=O)N[C@@H](CO)C(=O)N[C@@H](Cc2cn(CC(=O)O)c3ccccc23)C(=O)N1C` [fluorine-18 labelled] is reported as 2.27 ± 0.74 %ID/mL (region of interest, PET/CT; HT-29 MSS xenograft, NSG mouse, female, tumour; intravenous, 60 min).
`CC(C)C[C@@H](NC(=O)[C@@H](CCCNC(=N)N)NC(=O)[C@@H](Cc1c[nH]cn1)NC(=O)[C@@H](Cc1c[nH]c2ccccc12)NC(=O)[C@@H](Cc1c[nH]cn1)NC(=O)[C@@H](Cc1ccccc1)NC(=O)[C@H](NC(=O)[C@@H](Cc1ccc(O)cc1)NC(=O)CNC(=O)CNC(=O)CCOCCOCCOCCNC(=O)CN1CCN(CC(=O)O)CCN(CC(=O)O)CC1)[C@H](C)O)C(=O)N[C@H](CC(N)=O)C(=O)N1CCC[C@@H]1C(=O)O` [gallium-68 labelled] has a tissue ratio of 5.6 ± 0.66 (C57BL/6 mice, male; intravenous, 1.85 MBq, 120 min; relative to: tumour over lung).
For `O=C1NC2(CC2)COc2ncc(F)cc2[C@H]2COCCN2c2ccn3ncc1c3n2`, the haematocrit was 40.1 ± 2.1% (Sprague-Dawley rats, female, blood; oral, 5 mg/kg/day, end of recovery, 4-week subacute toxicity).
For `CC[C@H](C)[C@H](NC(=O)[C@H](CCCNC(=N)N)NC(=O)[C@H](CCCNC(=N)N)NC(=O)[C@H](CC(C)C)NC(=O)[C@H](Cc1c[nH]c2ccccc12)NC(=O)[C@H](CCCCN)NC(=O)[C@H](CCCNC(=N)N)NC(=O)[C@H](CCCCN)NC(=O)[C@H](CCCNC(=N)N)NC(=O)[C@H](CCCNC(=N)N)NC(=O)CN)C(=O)NCC(=O)N[C@@H](CCCCN)C(=O)NCC(=O)N[C@H](C(=O)N[C@@H](CCCCN)C(=O)N[C@H](C(=O)N[C@H](C(=O)NCC(=O)NCC(=O)N[C@@H](C)C(=O)N[C@@H](C)C(=O)N[C@@H](CC(C)C)C(=O)N[C@@H](CC(=O)O)C(=O)N[C@@H](Cc1c[nH]cn1)C(=O)N[C@@H](CC(C)C)C(N)=O)[C@@H](C)CC)[C@@H](C)CC)C(C)C`, “chronic toxic concentration” read 5 µM (zebrafish embryos 4 hpf, E3 medium; 24 h).
`CC(C)Oc1c(NC(=O)c2ccc(NC(=O)[C@H](CC(N)=O)NC(=O)c3ccc(/N=N/c4ccccc4)cc3)cc2)ccc(C(=O)N/N=C/c2ccc(C(=O)O)cc2)c1O` gave a thermal half-life of 74 h (absorbance; DMSO; 30 °C, PSS to ground state relaxation).
`N=C(N)NCCC[C@H](NC(=O)[C@H](CCCNC(=N)N)NC(=O)[C@H](CCCNC(=N)N)NC(=O)[C@H](CCC(N)=O)NC(=O)[C@H](CCCNC(=N)N)NC(=O)[C@H](CCCNC(=N)N)NC(=O)[C@H](CCCCN)NC(=O)[C@H](CCCCN)NC(=O)[C@H](CCCNC(=N)N)NC(=O)CNC(=O)[C@H](Cc1ccc(O)cc1)NC(=O)[C@H](Cc1ccccc1)NC(=O)[C@H](Cc1ccccc1)NC(=O)[C@H](Cc1ccccc1)NC(=O)OCC1c2ccccc2-c2ccccc21)C(=O)O` has a health score of 5 (C57BL/6 mice; intraperitoneal, 10 mg/kg, 6 h; direction not given).
`CCCCCCCCCCCCCCCC(=O)N[C@@H](CCC(=O)NCCCC[C@H](NC(=O)[C@H](CC(=O)O)NC(=O)[C@H](CO)NC(=O)[C@@H](NC(=O)[C@H](Cc1ccccc1)NC(=O)[C@@H](NC(=O)CNC(=O)[C@H](CCC(N)=O)NC(=O)[C@H](C)NC(=O)[C@@H](Cc1ccc(O)cc1)NC(C)=O)[C@@H](C)O)[C@@H](C)O)C(=O)N[C@@H](CO)C(=O)N[C@@H](CCCCN)C(=O)N[C@@H](Cc1ccc(O)cc1)C(=O)N[C@@H](CC(C)C)C(=O)N[C@@H](CC(=O)O)C(=O)N[C@@H](CCC(=O)O)C(=O)N[C@@H](CCCNC(=N)N)C(=O)N[C@@H](C)C(=O)N[C@@H](C)C(=O)N[C@@H](CCC(N)=O)C(=O)N[C@@H](CC(=O)O)C(=O)N[C@@H](Cc1ccccc1)C(=O)N[C@H](C(=O)N[C@@H](CCC(N)=O)C(=O)N[C@@H](Cc1c[nH]c2ccccc12)C(=O)N[C@@H](CC(C)C)C(=O)N[C@@H](CC(C)C)C(=O)N[C@@H](CCC(=O)O)C(=O)NCC(=O)NCC(=O)N1CCC[C@H]1C(=O)N[C@@H](CO)C(=O)N[C@@H](CO)C(=O)NCC(=O)N[C@@H](C)C(=O)N1CCC[C@H]1C(=O)N1CCC[C@H]1C(=O)N1CCC[C@H]1C(=O)N[C@@H](CO)C(N)=O)C(C)C)C(=O)O` has an AUC(0-last) of 2080 ng·h/mL (male cynomolgus monkey, plasma; subcutaneous, 0.0161 mg/kg).

Repeated from above:
`CCCCCCCCCCCCCCCC(=O)N[C@@H](CCC(=O)NCCCC[C@H](NC(=O)[C@H](CC(=O)O)NC(=O)[C@H](CO)NC(=O)[C@@H](NC(=O)[C@H](Cc1ccccc1)NC(=O)[C@@H](NC(=O)CNC(=O)[C@H](CCC(N)=O)NC(=O)[C@H](C)NC(=O)[C@@H](Cc1ccc(O)cc1)NC(C)=O)[C@@H](C)O)[C@@H](C)O)C(=O)N[C@@H](CO)C(=O)N[C@@H](CCCCN)C(=O)N[C@@H](Cc1ccc(O)cc1)C(=O)N[C@@H](CC(C)C)C(=O)N[C@@H](CC(=O)O)C(=O)N[C@@H](CCC(=O)O)C(=O)N[C@@H](CCCNC(=N)N)C(=O)N[C@@H](C)C(=O)N[C@@H](C)C(=O)N[C@@H](CCC(N)=O)C(=O)N[C@@H](CC(=O)O)C(=O)N[C@@H](Cc1ccccc1)C(=O)N[C@H](C(=O)N[C@@H](CCC(N)=O)C(=O)N[C@@H](Cc1c[nH]c2ccccc12)C(=O)N[C@@H](CC(C)C)C(=O)N[C@@H](CC(C)C)C(=O)N[C@@H](CCC(=O)O)C(=O)NCC(=O)NCC(=O)N1CCC[C@H]1C(=O)N[C@@H](CO)C(=O)N[C@@H](CO)C(=O)NCC(=O)N[C@@H](C)C(=O)N1CCC[C@H]1C(=O)N1CCC[C@H]1C(=O)N1CCC[C@H]1C(=O)N[C@@H](CO)C(N)=O)C(C)C)C(=O)O` has an AUC(0-last) of 2080 ng·h/mL (male cynomolgus monkey, plasma; subcutaneous, 0.0161 mg/kg).
